Experimental data from different studies.
Parts stem from different laboratories: compare values within a part only. “And” joins repeats or separate records; there may be more than shown.
Chain of UniProt P15170 (whole entry, looked up): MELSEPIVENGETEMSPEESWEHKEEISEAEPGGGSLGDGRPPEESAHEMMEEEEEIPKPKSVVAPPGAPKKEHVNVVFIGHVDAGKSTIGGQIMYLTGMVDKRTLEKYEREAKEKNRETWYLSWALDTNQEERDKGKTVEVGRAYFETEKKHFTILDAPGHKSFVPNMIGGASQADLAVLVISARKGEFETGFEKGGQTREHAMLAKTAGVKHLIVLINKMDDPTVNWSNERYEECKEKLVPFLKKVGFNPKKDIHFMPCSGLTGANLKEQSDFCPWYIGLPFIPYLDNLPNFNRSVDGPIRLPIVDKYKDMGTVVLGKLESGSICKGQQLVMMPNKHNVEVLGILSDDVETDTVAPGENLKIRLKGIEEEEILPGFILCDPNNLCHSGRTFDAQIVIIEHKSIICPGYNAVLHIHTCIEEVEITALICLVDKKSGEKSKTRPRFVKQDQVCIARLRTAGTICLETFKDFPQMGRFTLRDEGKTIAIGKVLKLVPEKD
Chain of UniProt Q9UKT9 (whole entry, looked up): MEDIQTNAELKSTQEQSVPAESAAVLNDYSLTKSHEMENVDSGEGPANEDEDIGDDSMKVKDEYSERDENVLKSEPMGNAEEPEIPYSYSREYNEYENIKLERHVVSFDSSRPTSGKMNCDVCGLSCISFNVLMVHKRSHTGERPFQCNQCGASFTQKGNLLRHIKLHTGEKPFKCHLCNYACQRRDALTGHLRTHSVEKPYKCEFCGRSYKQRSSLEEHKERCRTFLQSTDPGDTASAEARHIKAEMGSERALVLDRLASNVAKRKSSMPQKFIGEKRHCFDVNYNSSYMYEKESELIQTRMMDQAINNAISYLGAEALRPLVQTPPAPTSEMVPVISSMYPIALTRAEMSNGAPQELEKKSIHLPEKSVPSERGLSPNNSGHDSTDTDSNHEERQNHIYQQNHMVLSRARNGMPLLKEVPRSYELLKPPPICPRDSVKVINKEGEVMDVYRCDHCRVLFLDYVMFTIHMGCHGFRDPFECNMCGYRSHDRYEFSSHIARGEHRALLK
Chain of UniProt P32300 (whole entry, looked up): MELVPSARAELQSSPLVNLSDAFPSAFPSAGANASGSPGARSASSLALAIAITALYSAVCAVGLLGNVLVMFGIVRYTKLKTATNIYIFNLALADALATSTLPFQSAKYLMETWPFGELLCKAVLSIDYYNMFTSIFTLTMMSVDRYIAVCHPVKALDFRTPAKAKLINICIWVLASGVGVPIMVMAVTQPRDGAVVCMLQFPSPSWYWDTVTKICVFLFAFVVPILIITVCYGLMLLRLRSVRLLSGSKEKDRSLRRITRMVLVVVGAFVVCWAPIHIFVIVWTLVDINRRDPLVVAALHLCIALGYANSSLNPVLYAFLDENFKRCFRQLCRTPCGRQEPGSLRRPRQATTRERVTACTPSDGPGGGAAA

Study 1
Target: Membrane-associated tyrosine- and threonine-specific cdc2-inhibitory kinase (PKMYT1, Homo sapiens, UniProt Q99640)
Effect on: binding
Technique: HTRF
Measurement: IC50
Residues (Q99640 1-499): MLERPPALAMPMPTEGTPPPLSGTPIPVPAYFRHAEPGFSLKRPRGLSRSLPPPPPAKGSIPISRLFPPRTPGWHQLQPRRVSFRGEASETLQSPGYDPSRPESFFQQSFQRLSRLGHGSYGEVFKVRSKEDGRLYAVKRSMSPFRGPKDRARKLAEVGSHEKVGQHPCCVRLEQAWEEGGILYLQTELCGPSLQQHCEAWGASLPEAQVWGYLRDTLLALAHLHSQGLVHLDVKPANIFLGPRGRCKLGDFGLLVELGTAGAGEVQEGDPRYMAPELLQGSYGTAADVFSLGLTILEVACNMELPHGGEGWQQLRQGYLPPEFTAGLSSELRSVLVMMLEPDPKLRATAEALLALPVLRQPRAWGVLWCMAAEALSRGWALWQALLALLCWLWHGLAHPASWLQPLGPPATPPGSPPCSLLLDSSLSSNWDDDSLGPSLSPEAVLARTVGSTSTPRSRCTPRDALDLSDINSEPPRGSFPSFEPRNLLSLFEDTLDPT
Cc1ccc(O)c(C)c1-c1cnc2[nH]c(-c3cnc(N4CCC(CN5CCN(c6ccc(N7CCC(=O)NC7=O)cc6F)CC5)CC4)nc3)cc2c1C#N: 3.8 nM
Cc1ccc(O)c(C)c1-c1cnc2[nH]c(-c3cnc(N4CCC(CN5CCN(c6ccc(C(=O)NC7CCC(=O)NC7=O)c(F)c6)CC5)CC4)nc3)cc2c1C#N (racemic): 4.3 nM
Cc1ccc(O)c(C)c1-c1cnc2[nH]c(-c3cnc(N4CCC(CN5CCN(c6ccc7c8c(cccc68)C(=O)N7C6CCC(=O)NC6=O)CC5)CC4)nc3)cc2c1C#N (racemic): 8.2 nM

Study 2
SMILES: C=CCN1C(=O)C(O)(C(=O)O)Oc2cc(F)ccc21 (stereo not shown)
Measurement: inhibition
Arabidopsis thaliana; hypocotyl length; Col-0; 100 µg/mL, 7 days, seed germination, dark: 35.6%
Arabidopsis thaliana; hypocotyl length; Col-0, seedlings; 100 µg/mL: 35.6%
Avena fatua; fresh weight; 150 g ai/ha, pre-emergence treatment: 34.1% and 40.7% and 36.2%

Study 3
SMILES: Cn1cc(-c2cccc(CN3CCC4(CC3)COc3c4ccc4c3CN([C@H]3CCC(=O)NC3=O)C4=O)c2)cn1
Mode: degrader
Measurement: remaining protein
IKZF4: Zinc finger protein Eos (IKZF4, Homo sapiens, UniProt Q9H2S9)
Chain of UniProt Q9H2S9 (whole entry, looked up): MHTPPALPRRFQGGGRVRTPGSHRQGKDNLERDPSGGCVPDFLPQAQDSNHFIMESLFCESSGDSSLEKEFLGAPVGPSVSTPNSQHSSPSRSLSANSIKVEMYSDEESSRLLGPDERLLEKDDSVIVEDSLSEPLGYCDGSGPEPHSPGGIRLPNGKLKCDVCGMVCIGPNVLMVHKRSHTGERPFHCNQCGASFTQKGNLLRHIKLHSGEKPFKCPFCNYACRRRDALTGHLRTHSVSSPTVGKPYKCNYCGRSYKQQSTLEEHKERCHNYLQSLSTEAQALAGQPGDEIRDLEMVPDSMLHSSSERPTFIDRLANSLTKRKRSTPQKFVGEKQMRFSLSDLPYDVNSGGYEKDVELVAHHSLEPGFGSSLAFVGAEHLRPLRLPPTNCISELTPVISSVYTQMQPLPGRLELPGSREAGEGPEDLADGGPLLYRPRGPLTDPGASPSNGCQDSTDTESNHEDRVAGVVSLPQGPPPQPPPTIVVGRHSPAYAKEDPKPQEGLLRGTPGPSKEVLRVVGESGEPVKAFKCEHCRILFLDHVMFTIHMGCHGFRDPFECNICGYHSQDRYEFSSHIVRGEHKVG
CRBN/Zinc finger protein Helios: CRBN/Zinc finger protein Helios (Homo sapiens, UniProt Q96SW2+Q9UKS7)
Chain of UniProt Q9UKS7 (whole entry, looked up): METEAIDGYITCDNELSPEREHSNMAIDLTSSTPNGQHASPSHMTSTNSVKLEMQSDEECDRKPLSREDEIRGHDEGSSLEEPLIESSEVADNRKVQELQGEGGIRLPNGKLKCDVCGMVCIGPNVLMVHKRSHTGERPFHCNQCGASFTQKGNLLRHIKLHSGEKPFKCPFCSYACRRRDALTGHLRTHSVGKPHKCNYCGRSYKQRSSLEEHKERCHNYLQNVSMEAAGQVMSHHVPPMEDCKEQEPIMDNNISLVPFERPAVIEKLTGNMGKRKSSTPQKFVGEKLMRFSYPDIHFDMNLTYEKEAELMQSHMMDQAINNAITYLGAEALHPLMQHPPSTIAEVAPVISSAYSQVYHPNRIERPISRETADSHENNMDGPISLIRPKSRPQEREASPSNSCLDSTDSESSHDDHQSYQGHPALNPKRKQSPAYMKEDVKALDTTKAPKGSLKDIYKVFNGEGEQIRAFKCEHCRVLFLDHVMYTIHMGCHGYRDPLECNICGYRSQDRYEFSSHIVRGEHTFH
Chain of UniProt Q96SW2 (whole entry, looked up): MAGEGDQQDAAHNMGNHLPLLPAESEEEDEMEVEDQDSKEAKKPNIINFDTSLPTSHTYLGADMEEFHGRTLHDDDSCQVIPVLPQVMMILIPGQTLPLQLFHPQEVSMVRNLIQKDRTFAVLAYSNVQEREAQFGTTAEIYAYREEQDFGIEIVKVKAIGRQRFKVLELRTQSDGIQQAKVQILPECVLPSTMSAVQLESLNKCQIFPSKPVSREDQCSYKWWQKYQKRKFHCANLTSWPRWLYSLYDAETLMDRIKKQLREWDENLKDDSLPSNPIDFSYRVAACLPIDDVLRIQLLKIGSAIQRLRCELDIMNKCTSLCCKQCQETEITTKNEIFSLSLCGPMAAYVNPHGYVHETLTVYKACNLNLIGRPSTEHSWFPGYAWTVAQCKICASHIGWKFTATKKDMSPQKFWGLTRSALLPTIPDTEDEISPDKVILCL
IKZF4; HiBiT; HEK293; 4.115 nM, 3 h: 108% and 103%
Zinc finger protein Aiolos (Homo sapiens, UniProt Q9UKT9); HiBiT; HEK293; 4.572 nM: 93.2% and 96.6%
Eukaryotic peptide chain release factor GTP-binding subunit ERF3A (GSPT1, Homo sapiens, UniProt P15170); HiBiT; HEK293; 13.72 nM: 99.9% and 99%
IKZF4; HiBiT; HEK293; 0.1524 nM, 6 h: 101% and 98.3%
IKZF4; HiBiT; HEK293; 37.04 nM, 3 h: 110% and 118%
CRBN/Zinc finger protein Helios; flow cytometry; primary human regulatory T cells; 111.1 nM, 6 h: 12.4% and 8.88%
CRBN/Zinc finger protein Helios; flow cytometry; primary human regulatory T cells; 1000 nM, 6 h: 4.62% and 7.58%
CRBN/Zinc finger protein Helios; flow cytometry; primary human regulatory T cells; 0.1524 nM, 6 h: 100% and 96.5%

Other studies, line by line
CCCCC[C@@H]1CC(=O)N[C@@H](C(C)C)C(=O)N[C@H](CCCNC(=N)N)C(=O)N[C@@H](C(C)C)C(=O)NCC(=O)N2CCC[C@H]2C(=O)N[C@@H](CC(C)C)C(=O)N[C@H](CCCNC(=N)N)C(=O)N[C@@H](CCC(=O)O)C(=O)N[C@H](Cc2ccc(O)cc2)C(=O)N[C@H](Cc2c[nH]c3ccccc23)C(=O)NCCCC(=O)O1 — viable cells (Staphylococcus aureus; USA300; 2 x MIC, 360 min): 500 CFU/mL and 400 CFU/mL
N=C(N)NCCCCCCN1CCC23c4c5ccc(O)c4OC2c2nc4ccccc4cc2CC3(O)C1C5 (stereo not shown) — EC50 (Delta-type opioid receptor, with Gi1 (Oprd1, Mus musculus, UniProt P32300); agonist, cell-based): 8.3 nM

Repeated from above (study 3):
CRBN/Zinc finger protein Helios; flow cytometry; primary human regulatory T cells; 111.1 nM, 6 h: 12.4% and 8.88%
Eukaryotic peptide chain release factor GTP-binding subunit ERF3A (GSPT1, Homo sapiens, UniProt P15170); HiBiT; HEK293; 13.72 nM: 99.9% and 99%
CRBN/Zinc finger protein Helios; flow cytometry; primary human regulatory T cells; 1000 nM, 6 h: 4.62% and 7.58%
